Measurements of several laboratories.
Compare with care: the assays were run in different laboratories. Numbers after ± are the reported error.
UniProt O14939, sequence (whole entry, looked up): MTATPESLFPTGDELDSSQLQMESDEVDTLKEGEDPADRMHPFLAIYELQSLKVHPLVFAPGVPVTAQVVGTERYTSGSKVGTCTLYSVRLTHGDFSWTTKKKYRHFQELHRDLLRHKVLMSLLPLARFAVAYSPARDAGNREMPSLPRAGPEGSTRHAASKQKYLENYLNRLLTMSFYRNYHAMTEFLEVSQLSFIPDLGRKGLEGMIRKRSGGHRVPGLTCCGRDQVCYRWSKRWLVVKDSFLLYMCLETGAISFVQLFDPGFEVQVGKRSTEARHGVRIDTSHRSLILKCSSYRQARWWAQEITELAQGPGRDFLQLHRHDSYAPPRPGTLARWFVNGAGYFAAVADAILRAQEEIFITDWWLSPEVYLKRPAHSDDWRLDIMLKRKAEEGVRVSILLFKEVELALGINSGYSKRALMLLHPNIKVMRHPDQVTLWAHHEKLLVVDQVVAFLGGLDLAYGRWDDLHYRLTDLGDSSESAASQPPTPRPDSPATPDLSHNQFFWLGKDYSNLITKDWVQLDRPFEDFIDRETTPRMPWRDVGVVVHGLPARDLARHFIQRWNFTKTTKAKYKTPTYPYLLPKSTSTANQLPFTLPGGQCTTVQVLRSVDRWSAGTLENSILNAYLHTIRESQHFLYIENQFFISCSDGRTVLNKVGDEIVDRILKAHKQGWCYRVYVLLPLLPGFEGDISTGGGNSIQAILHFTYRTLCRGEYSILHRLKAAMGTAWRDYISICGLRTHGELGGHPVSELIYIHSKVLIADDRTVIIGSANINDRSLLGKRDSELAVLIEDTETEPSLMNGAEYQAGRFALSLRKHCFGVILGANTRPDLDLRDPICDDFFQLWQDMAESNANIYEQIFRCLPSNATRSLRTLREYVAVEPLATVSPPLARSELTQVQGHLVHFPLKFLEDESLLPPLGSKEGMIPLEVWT
UniProt Q86X55, sequence (whole entry, looked up): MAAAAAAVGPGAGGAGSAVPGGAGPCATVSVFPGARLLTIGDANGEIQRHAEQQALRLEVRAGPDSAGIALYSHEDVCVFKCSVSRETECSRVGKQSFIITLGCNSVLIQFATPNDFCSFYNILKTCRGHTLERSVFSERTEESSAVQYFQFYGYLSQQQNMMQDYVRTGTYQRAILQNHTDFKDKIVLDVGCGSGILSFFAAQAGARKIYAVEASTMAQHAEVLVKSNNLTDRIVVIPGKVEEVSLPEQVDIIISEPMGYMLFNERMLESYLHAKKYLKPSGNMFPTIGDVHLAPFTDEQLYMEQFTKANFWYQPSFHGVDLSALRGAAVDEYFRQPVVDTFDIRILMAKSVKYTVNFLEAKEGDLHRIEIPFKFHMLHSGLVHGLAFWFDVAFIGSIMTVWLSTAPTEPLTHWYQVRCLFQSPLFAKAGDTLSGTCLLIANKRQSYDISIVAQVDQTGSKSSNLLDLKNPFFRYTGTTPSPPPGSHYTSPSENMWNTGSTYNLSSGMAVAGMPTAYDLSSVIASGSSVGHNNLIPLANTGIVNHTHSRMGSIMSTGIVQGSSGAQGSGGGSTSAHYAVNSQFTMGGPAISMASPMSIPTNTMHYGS
UniProt P21452, sequence (whole entry, looked up): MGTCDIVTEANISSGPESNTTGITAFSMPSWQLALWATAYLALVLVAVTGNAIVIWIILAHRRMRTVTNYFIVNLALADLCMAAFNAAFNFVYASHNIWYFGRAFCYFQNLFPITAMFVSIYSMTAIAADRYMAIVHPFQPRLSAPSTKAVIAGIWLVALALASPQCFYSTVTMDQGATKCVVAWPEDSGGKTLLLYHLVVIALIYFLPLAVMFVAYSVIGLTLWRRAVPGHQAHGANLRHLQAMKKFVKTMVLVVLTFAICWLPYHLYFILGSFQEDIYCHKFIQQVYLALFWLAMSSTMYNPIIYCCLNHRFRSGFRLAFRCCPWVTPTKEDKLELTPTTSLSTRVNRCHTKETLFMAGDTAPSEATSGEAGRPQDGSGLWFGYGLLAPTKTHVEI
UniProt Q8E0N2, sequence (whole entry, looked up): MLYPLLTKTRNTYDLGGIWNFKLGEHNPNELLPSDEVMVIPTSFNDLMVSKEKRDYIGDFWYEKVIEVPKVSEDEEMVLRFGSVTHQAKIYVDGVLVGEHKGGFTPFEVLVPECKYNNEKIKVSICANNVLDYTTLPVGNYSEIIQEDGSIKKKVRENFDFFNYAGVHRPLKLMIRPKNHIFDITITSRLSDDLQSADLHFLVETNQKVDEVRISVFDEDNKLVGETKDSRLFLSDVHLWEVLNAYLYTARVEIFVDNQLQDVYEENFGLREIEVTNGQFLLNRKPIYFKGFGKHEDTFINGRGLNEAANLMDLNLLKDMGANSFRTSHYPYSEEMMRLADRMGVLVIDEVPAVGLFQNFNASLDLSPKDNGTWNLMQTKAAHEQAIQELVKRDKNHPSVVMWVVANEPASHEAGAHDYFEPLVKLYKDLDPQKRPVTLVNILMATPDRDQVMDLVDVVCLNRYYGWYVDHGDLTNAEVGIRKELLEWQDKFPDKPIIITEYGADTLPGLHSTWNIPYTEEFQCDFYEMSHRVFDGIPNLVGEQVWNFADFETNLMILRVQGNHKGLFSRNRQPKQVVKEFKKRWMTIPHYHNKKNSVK
UniProt P41145, sequence (whole entry, looked up): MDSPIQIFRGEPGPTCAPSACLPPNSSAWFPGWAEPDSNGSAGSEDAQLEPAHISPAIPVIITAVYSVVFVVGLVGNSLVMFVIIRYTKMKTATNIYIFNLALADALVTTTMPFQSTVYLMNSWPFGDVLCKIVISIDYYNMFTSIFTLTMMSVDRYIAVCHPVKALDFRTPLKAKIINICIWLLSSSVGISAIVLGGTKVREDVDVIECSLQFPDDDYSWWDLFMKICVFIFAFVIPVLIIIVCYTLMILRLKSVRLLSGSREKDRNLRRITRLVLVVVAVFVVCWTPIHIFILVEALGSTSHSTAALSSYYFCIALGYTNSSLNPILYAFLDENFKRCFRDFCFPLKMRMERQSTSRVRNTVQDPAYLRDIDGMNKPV
UniProt Q01959, sequence (whole entry, looked up): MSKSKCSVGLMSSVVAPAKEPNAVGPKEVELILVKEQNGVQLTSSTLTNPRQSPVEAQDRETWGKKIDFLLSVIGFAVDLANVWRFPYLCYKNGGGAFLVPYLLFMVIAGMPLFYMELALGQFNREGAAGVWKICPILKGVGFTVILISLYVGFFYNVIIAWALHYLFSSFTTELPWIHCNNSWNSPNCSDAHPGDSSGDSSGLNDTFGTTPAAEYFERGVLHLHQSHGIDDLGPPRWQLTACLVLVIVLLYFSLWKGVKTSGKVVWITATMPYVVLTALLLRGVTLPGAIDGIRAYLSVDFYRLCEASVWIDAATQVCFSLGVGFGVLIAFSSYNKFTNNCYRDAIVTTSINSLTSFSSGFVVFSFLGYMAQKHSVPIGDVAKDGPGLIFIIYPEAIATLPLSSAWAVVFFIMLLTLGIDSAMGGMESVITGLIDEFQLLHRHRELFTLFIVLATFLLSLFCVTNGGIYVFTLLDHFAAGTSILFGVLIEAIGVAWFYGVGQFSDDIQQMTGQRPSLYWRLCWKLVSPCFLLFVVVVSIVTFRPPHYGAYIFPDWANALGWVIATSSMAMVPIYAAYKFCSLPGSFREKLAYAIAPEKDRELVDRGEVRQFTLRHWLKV
UniProt P09769, sequence (whole entry, looked up): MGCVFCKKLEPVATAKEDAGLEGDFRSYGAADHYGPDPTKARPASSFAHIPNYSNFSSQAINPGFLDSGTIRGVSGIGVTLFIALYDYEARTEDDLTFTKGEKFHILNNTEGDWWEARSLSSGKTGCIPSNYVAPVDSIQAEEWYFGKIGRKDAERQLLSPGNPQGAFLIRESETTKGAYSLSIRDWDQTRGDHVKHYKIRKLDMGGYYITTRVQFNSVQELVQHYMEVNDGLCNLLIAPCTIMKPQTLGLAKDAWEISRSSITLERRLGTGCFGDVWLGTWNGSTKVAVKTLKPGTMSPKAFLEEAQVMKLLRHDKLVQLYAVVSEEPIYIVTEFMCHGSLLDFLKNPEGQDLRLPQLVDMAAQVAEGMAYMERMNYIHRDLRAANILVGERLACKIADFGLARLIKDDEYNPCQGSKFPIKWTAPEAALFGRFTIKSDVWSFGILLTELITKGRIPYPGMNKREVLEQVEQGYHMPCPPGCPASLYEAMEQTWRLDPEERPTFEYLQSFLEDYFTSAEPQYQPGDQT
UniProt P52895, sequence (whole entry, looked up): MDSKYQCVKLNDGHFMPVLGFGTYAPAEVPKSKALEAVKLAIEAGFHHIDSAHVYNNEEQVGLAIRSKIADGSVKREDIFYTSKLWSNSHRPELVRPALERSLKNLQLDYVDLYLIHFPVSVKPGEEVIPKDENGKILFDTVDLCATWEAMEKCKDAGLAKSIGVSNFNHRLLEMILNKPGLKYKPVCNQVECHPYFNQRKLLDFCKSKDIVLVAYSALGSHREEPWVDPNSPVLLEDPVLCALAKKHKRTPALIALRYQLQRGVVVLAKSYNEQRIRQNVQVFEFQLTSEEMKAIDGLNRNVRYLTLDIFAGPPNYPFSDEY

SMILES	target	assay	test system	conditions	IC50 [nM]
O=C(NCCN1CCC2(CC1)C(=O)NCN2Cc1cccnc1)c1cc2ccccc2[nH]1	Phospholipase D2 (Homo sapiens, UniProt O14939)	enzyme activity, inhibitor			52
CC[C@H](C)[C@H](N)C(=O)N[C@@H](CC(N)=O)C(=O)N[C@H]1CSC(=O)[C@H](CC(C)C)NC(=O)[C@H](CC(C)C)NC(=O)[C@H](Cc2ccccc2)NC(=O)[C@H](CC(N)=O)NC1=O	accessory gene regulator protein C (Staphylococcus aureus, UniProt O33587)				0.319
CC[C@H](C)[C@H](NC(=O)CN(CCOC)C(=O)CN(CCOC)C(=O)CNCCOC)C(=O)N[C@@H](CO)C(=O)N[C@@H](CCC(N)=O)C(=O)N[C@H](C(=O)N[C@@H](CC(N)=O)C(=O)N[C@@H](CCC(=O)O)C(=O)N[C@@H](CCCCN)C(=O)N[C@H](C(=O)N[C@@H](CC(N)=O)C(=O)N[C@@H](CCC(N)=O)C(=O)N[C@@H](CO)C(=O)N[C@@H](CC(C)C)C(=O)N[C@@H](C)C(=O)N[C@@H](Cc1ccccc1)C(=O)N[C@H](C(=O)N[C@@H](CCCNC(=N)N)C(=O)N[C@@H](CCCCN)C(=O)N[C@@H](CO)C(=O)N[C@@H](CC(=O)O)C(=O)N[C@@H](CCC(=O)O)C(=O)O)[C@@H](C)CC)[C@@H](C)CC)C(C)C	hRSV fusion protein 5-helix bundle	binding, fluorescence polarization		together with: Fl-C35 tracer 5 nM	> 200000
COC1CC(=O)N(C)C=CCCCC(=O)N(C)C(C(C)C)C(=O)N(C)C(CC(C)C)C(=O)OC(C(C)C)CC(C)C1 (stereo not shown)	Substance-K receptor (TACR2, Homo sapiens, UniProt P21452)	ligand displacement, radioligand			2100
C[C@@]12CC[C@@H]3c4ccc(O)c(Cl)c4CC[C@H]3[C@@H]1CCC2=O	Aldo-keto reductase family 1 member C2 (AKR1C2, Homo sapiens, UniProt P52895)	enzyme activity, inhibitor, absorbance		pH 9	1800
N#Cc1cn([C@@H]2O[C@H](CSCC[C@H](N)C(=O)O)[C@@H](O)[C@H]2O)c2ncnc(N)c12	Histone-arginine methyltransferase CARM1 (CARM1, Homo sapiens, UniProt Q86X55)	enzyme activity, inhibitor, radiometric			1000
CC[C@H](C)[C@H](NC(=O)[C@@H](N)Cc1ccc(O)cc1)C(=O)N[C@@H](Cc1ccccc1)C(=O)N[C@@H](CC(N)=O)C(=O)N[C@@H](CC(C)C)C(=O)O	Kappa-type opioid receptor (OPRK1, Homo sapiens, UniProt P41145)	[3H]EKC binding displacement, whole-cell radioligand binding	T47D	together with: DADLE	0.0541 ± 5.7e-14
CNC(=O)C1CCN(c2ccccc2NC(=O)c2ccc(-c3cc(O)ccc3C)c(C)n2)CC1	Tyrosine-protein kinase Fgr (FGR, Homo sapiens, UniProt P09769)	target engagement in cells, BRET			545
NC(=O)CN(CC(=O)O)CC(=O)O	IMP-28 metallo-beta-lactamase	enzyme activity, inhibitor, FC5 fluorescent substrate		60 pM enzyme, 1 µM ZnSO4	> 200000
C[C@H]1CN(c2nnnc3c2sc2nc(N4CCOCC4)c4c(c23)CCCC4)CCN1	Beta-glucuronidase (Streptococcus agalactiae serotype V, UniProt Q8E0N2)		Streptococcus agalactiae		1900 ± 400
Cn1nnc(-c2cccc(NC(=O)CCS)c2)n1	Metallo-beta-lactamase VIM-2 (VIM-2, Escherichia coli, UniProt Q5U7L7)	enzyme activity, inhibitor, fluorescence		with preincubation	79
OC(COCc1ccccc1Cl)CN1CC=C(c2c[nH]c3ccccc23)CC1 (racemic)	Sodium-dependent dopamine transporter (SLC6A3, Homo sapiens, UniProt Q01959)	transporter uptake, inhibitor, radiometric			3440
CC(C)(C)c1ccc(C(=O)Nc2cc(Cl)c(Br)cc2C(=O)O)cc1	Phosphotransferase (Trypanosoma brucei, UniProt Q38C42)	enzyme activity, inhibitor			980 ± 70
